Measurements collected from several papers.
Parts stem from different laboratories: compare values within a part only. Changes are numbered by the printed parent chain.

Series 1 — method: universal PBM; form: double-stranded DNA, one strand shown; sample: in vitro; tested at: not given; direction: higher = stronger binding
Target: Sal-like protein 4, full length isoform B (SALL4, Homo sapiens, UniProt Q9UJQ4-2, residues 1-616)
Notes: 8-mer, flanks averaged, mean of replicates
Residues (chain): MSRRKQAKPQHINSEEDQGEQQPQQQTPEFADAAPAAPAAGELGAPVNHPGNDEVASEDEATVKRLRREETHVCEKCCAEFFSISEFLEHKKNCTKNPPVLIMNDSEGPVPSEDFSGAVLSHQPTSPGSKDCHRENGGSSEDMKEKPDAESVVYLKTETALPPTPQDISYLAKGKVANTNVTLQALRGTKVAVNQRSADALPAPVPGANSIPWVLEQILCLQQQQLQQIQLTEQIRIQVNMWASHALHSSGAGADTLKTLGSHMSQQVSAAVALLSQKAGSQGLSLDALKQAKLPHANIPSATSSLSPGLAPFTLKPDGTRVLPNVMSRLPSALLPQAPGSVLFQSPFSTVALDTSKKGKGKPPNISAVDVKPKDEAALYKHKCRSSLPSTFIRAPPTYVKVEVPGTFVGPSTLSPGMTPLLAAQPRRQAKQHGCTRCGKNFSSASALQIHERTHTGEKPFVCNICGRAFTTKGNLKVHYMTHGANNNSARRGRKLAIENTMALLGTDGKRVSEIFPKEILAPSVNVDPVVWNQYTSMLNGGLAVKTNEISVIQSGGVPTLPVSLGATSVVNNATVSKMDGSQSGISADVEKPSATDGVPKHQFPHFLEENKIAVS
Strand | E-score
GCTTTGAA | 0.179
CTGTCTTA | 0.0675
ATAAAGAT | 0.312
ACTAGTCG | -0.0624

Series 2 — method: aptamer microarray, sandwich; form: DNA with 2'F-ANA; sample: in vitro; tested at: 200 nM; together with: Cy3 exosite-II aptamer, 400 nM; direction: higher = stronger binding; strand: GGTTGGTGTGGTTGG
Target: Prothrombin, mature alpha-thrombin (F2, Homo sapiens, UniProt P00734)
Notes: whole 15-mer aptamer, many near background
Modification | mean fluorescence intensity [a.u.]
2'F-ANA at 2 4 7 8 10 12 | 150
2'F-ANA at 1 2 5 7 8 9 10 13 15 | 45.9
2'F-ANA at 2 6 9 11 12 14 15 | 131
2'F-ANA at 2 3 7 8 9 11 12 13 14 | 449
2'F-ANA at 2 4 5 9 10 11 12 14 | 46.3

Series 3 — target: CCNB2, cyclin fold, Cln2 fusion (human); method: yeast growth competition, sequencing; sample: yeast; notes: weak parent motif; relative to: not given; direction: higher = stronger binding
Starting sequence: CDC6 docking peptide (human); TLKGRRLVFDNQL; partner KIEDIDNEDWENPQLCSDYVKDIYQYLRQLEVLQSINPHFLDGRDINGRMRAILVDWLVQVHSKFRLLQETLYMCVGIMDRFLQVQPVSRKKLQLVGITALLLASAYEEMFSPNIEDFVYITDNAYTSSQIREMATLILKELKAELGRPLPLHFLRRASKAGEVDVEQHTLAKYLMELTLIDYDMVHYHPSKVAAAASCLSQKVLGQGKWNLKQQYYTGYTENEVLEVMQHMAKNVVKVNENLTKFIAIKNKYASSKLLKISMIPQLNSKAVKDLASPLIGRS
Substitution | normalised enrichment score
TLKGRRLVFDNQE [L13E] | 0.0778
TLKGRRLKFDNQL [V8K] | 0.699
TLKGRRLVFDNLL [Q12L] | 0.425

Further values, each from its own experiment
Molecule | target | assay | system | setting | scale | measurement | result
PhoQ, residues 284 288 289 292 302 303 SCEHLI | PhoP, residues 12 14 15 18 19 SPWRL (Escherichia coli, UniProt P23836) | Sort-seq, refers to: YFP reporter | E. coli | PhoQ-PhoP variant library, together with: 10 µM Mg2+ | relative to: high Mg2+ state, higher = stronger signaling | fold induction | 0.134

For quick reference, copied from above (series 1):
Strand | E-score
ATAAAGAT | 0.312
ACTAGTCG | -0.0624
